Assay results collected from several papers.
Numbered parts are unrelated; each lists some results of a single study.

Block 1 — method: protein-binding microarray; form: double-stranded DNA, one strand shown; sample: in vitro; concentration: 2200 nM top; notes: 60-bp whole probe; added: salmon DNA 0.4 mg/ml; baseline: random background probes; reading: higher = stronger binding; all sequences stand within: GCCTAGCAC … GTCTTGATTCGCTTGACGCTGCTG
Target: Interferon regulatory factor 7, full length, phosphomimetic (IRF7, Homo sapiens, UniProt Q92985, residues 1-503, S471D/S472D/S475D/S476D/S477D/S483D/S484D/S487D)
Target sequence (chain): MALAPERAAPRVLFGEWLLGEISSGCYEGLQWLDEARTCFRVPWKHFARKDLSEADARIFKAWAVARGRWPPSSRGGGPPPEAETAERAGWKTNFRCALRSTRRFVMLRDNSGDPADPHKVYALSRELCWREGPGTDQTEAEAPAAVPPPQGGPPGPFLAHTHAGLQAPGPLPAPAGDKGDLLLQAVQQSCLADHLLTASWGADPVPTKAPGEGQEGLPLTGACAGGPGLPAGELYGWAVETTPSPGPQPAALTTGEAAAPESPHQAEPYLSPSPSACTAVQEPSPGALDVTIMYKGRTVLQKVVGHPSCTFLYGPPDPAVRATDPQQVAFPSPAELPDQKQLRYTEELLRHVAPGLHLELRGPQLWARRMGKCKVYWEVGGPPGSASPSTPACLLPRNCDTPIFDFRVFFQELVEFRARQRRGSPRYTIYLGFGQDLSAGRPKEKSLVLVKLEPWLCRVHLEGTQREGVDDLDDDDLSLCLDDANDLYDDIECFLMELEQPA
Sequence | fitted relative affinity [z-score]
TTAGTACTGCTTATCCTTTAGTGCTAG | 1.03
TCTACTTCTCTTTTTGCTTTGTGCTAG | 3.46
GACGGACTGCTTTTCCTCACGTGCTAG | 0.756
TTAGGTATCGACTATGGGTTAGTGCTA | 0.0648
CTAGATTTCAGTTTCGATTAGTGCTAG | 8.19

Block 2 — method: universal PBM; form: double-stranded DNA, one strand shown; sample: in vitro; concentration: 600 nM; reading: higher = stronger binding
Target: Sal-like protein 4, full length isoform A (SALL4, Homo sapiens, UniProt Q9UJQ4, residues 1-1053)
UniProt Q9UJQ4, sequence (whole entry, looked up): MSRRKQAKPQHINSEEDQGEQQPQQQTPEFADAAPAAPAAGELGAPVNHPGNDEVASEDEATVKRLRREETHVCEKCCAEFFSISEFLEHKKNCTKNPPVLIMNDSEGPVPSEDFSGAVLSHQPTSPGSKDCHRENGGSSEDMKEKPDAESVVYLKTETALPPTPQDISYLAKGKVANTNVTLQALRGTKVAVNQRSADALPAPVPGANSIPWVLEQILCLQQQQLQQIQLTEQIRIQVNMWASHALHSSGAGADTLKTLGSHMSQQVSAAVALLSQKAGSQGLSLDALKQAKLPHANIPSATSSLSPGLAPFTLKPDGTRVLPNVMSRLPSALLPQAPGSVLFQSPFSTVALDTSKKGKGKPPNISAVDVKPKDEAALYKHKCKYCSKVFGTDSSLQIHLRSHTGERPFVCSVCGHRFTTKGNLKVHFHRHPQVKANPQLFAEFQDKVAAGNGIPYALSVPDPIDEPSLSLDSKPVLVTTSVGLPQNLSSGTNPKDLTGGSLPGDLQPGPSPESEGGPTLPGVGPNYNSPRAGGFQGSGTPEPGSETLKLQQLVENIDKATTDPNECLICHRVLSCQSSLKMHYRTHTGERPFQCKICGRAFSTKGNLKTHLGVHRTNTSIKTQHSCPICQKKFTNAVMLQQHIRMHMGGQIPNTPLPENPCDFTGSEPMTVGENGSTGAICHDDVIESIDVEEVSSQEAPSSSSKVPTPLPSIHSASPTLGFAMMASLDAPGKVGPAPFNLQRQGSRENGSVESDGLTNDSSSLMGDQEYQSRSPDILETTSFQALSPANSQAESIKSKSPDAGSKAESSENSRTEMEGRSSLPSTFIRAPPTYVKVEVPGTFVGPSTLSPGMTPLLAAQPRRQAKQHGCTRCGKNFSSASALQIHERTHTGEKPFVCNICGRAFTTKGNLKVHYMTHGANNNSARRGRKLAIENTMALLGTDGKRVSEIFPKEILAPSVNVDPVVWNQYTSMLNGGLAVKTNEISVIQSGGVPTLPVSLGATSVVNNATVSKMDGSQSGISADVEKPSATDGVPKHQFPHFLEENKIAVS
Notes: 8-mer, flanks averaged, mean of replicates
Sequence | E-score
ACGGCGTC | -0.301
CAGTGAGC | -0.164
AATCGTCG | -0.103
CTCCTGGC | -0.222

Block 3 — method: protein binding microarray; form: double-stranded DNA, one strand shown; sample: in vitro; concentration: not given; baseline: not given; reading: higher = stronger binding
Target: Histone acetyltransferase KAT6A, winged helix 2, GST fusion (KAT6A, Homo sapiens, UniProt Q92794, residues 85-181)
Notes: 8-mer, flanks averaged, mean of 2 arrays, mostly near background
Construct (chain): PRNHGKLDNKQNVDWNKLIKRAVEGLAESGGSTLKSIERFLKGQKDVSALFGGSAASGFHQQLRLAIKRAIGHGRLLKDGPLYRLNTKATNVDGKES
Sequence | E-score
AAAGAGAG | 0.00946
CGCCAGCC | 0.178
CTAGTTCA | -0.0614
CAACTAGA | -0.0291
ACAGCGAA | 0.0871
ATTAACAG | -0.0137

Further values, each from its own experiment
Molecule | target | assay | test system | conditions | how to read | measurement | value
PhoQ, residues 284 288 289 292 302 303 SLSLLA | PhoP, residues 12 14 15 18 19 LYHSL (Escherichia coli, UniProt P23836) | Sort-seq, item: YFP reporter | E. coli | PhoQ-PhoP variant library, added: 10 µM Mg2+ | baseline: high Mg2+ state, higher = stronger signaling | fold induction | 17.9

Some of these lines once more (block 3):
Sequence | E-score
CGCCAGCC | 0.178
CTAGTTCA | -0.0614
